Published values gathered from unrelated publications.
Protocols differ between the studies behind these lines. “And” joins repeats or separate records; there may be more than shown.
Target: Serine/threonine-protein kinase 26 (STK26, Homo sapiens, UniProt Q9P289)
UniProt Q9P289, sequence (whole entry, looked up): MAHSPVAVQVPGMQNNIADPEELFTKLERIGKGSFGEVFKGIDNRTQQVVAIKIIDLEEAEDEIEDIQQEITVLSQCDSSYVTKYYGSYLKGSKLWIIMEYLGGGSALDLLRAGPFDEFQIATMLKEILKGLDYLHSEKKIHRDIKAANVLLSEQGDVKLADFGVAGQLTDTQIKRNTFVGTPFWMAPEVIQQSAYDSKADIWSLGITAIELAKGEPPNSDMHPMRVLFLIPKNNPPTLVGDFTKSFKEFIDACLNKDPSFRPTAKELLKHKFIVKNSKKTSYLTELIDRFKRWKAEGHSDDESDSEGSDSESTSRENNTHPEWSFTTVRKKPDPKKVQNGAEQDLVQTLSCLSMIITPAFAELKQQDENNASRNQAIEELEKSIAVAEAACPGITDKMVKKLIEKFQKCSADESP

For Cc1ccc(-c2c(/C=C(\C#N)C(=O)NC(C)C)n(CCCO)c3ncnc(N)c23)cc1, the remaining binding was 64% (cell-free assay, competition with immobilised ligand; 1 µM).
The inhibition of COc1ccc(C(=O)/C=C/c2ccccc2-c2c[nH]c3ccc(C#N)cc23)c(O)c1 is reported as -2% (enzyme activity, inhibitor; 20 µM).
With Cc1cnc2nc1Nc1cccc(c1)COC/C=C/COCc1cc(ccc1OCCN1CCOCC1)N2 the remaining binding was 76% (binding; 0.1 µM).
The inhibition of NC(=O)C[C@H]1CCc2sc3ncnc(O[C@H]4CC[C@H](N5CCOCC5)CC4)c3c21 is reported as 6% (enzyme activity, inhibitor; 10 µM).
With Cc1cccc(O[C@H]2CCC[C@@H](C(C)CNCc3ccncc3)C2)c1 (relative stereo) the inhibition was -14% (enzyme activity, inhibitor; 10 µM).
For Cc1ccc(C)c(-c2ccc3nc(NC(=O)C4CCCCC4)nn3c2)c1, the remaining activity was 71% (enzyme activity, Dundee kinase panel; 10 µM).
COCC12C(=O)NC3C4(C(OC)CC1O)C1CC5(O)C(OC)C(O)C(OC(C)=O)(C1C5OC(=O)c1ccccc1)C3(O)C(OC)C24 (centres unmarked) has a remaining activity of 112% and 117% (kinase activity, inhibitor, ProQinase kinase profiling; 25 µM; baseline: control).
With C=CC(=O)Nc1cccc(-c2cnc3[nH]cc(C(=O)NC(C)(C)C)c3n2)c1 the inhibition was 30% and 34% (kinase activity; 0.1 µM).
With CNC1C[S+]2CC[S+]3CC[S+](C1)[Ru-4]321([N]=C=S)[n]2c3ccc(OC)cc3c3c4c(c5cc(F)c[n+]1c5c32)C(=O)NC4=O (centres unmarked) the remaining binding was 96% (KinomeScan; 0.1 µM; baseline: untreated).
The remaining binding of COc1cc(Nc2nccc(-c3cnn4nc(OC)ccc34)n2)cc(C(F)(F)F)c1 is reported as 100% (binding, competition with immobilised ligand; 1 µM).
Nc1ncc(-c2cc(-c3cnn(CC(F)(F)F)c3)ncc2F)nc1C(=O)NC1CNCC(F)C1 (centres unmarked) gave a remaining activity of 106% (enzyme activity; 1 µM; baseline: DMSO control).
For Cc1cccc(-c2ccc3nc(NC(=O)C4CCOCC4)nn3c2)c1, the remaining activity was 84% (enzyme activity, Dundee kinase panel; 10 µM).
CCn1cc(C(=O)O)c(=O)c2c(N)c(F)c(NC3CCCCC3)cc21 has an inhibition of -5.5% (kinase activity; 0.1 µM, together with: ATP at Km).
Nc1nc(Nc2ccccc2)sc1C(=O)c1ccccc1 gave a remaining activity of 65% (enzyme activity, inhibitor; 10 µM).
The remaining binding of C=CC(=O)N1CCc2ccc(-n3c(=O)ccc4cnc5ccc(-c6cnn(C)c6)cc5c43)cc21 is reported as 99% (KINOMEscan; 1 µM; baseline: DMSO control).
CN1CCN(Cc2ccc(-c3ccc(CO[C@H]4CCC[C@@H]4NC(=O)c4cc(-c5cnn(C)c5)cnc4N)cc3)cc2)CC1 gave an inhibition of 29% (enzyme activity, inhibitor; 0.1 µM).
For CC(C)=CC1OC(C)(C)C2C=C3C(=O)C(Cl)=CC(O)C3C3C(O)C4OC4C(=O)C132 (centres unmarked), the remaining binding was 92% (cell-free assay, competition with immobilised ligand; 10 µM).

For quick reference, copied from above:
COCC12C(=O)NC3C4(C(OC)CC1O)C1CC5(O)C(OC)C(O)C(OC(C)=O)(C1C5OC(=O)c1ccccc1)C3(O)C(OC)C24 (centres unmarked) has a remaining activity of 112% and 117% (kinase activity, inhibitor, ProQinase kinase profiling; 25 µM; baseline: control).
